Published values of several laboratories.
Lines come from different studies, so protocols differ. ± marks the error that the study gave.
Organism: Trypanosoma brucei rhodesiense

Compound | effect on | method | strain | time | IC50 [nM]
COc1ccc(/C=N/N=C/c2ccc([N+](=O)[O-])s2)cc1 | parasite growth | CellTiter-Glo | IL1501 bloodstream form | 72 h | 1300 ± 210
CCOC(=O)CNC(=O)CN1C(=O)S/C(=C\c2ccc(C)cc2)C1=O | cell viability | – | IL1501 | 72 h | > 63000
O=[N+]([O-])c1ccc(/C=N/N=C/c2ccccc2)s1 | parasite growth | CellTiter-Glo | IL1501 bloodstream form | 72 h | 350 ± 20
O=C(Nc1cc2nc(-c3ccc(F)c(F)c3)c(CN3CCN(c4ccc(F)cc4)CC3)n2cn1)N1CC[C@H](F)C1 | parasite growth | – | STIB900 | 3 days | 900
O=[N+]([O-])c1ccc(/C=N/N=C/c2ccc([N+](=O)[O-])s2)cc1 | parasite growth | CellTiter-Glo | IL1501 bloodstream form | 72 h | 930 ± 230
O=C(Nc1ccc2c(c1)CN(c1ccc(Cl)cc1)C2=O)N1CC[C@H](O)C1 | parasite growth | resazurin | STIB-900 | 3 d | > 64000
O=[N+]([O-])c1ccc(/C=N/N=C/c2ccc(OCc3ccccc3)cc2)o1 | parasite growth | CellTiter-Glo | IL1501 bloodstream form | 72 h | 550 ± 100
O=C(Nc1ccc2c(c1)CN(c1ccccc1)C2=O)N1CC[C@H](O)C1 | parasite growth | resazurin | STIB-900 | 3 d | > 64000
CCOC(=O)C(C)NC(=O)CN1C(=O)S/C(=C\c2ccc(F)cc2)C1=O (stereo not shown) | cell viability | – | IL1501 | 72 h | > 64000
Cc1ccc(N2Cc3cc(NC(=O)N4CCN(c5ccc(F)cc5)CC4)ccc3C2=O)cc1 | cell growth | resazurin | STIB-900 | 3 days | 130
CCC(NC(=O)CN1C(=O)N/C(=C\c2ccc(C)cc2)C1=O)C(=O)OC (stereo not shown) | cell viability | – | IL1501 | 72 h | > 64000
O=C(Nc1ccc2c(c1)CN(c1ccccc1)C2=O)N1CCN(c2ccc(F)cc2)CC1 | parasite growth | resazurin | STIB-900 | 3 d | > 64000
CCOC(=O)C(NC(=O)CN1C(=O)N/C(=C\c2ccc3c(c2)OCO3)C1=O)C(C)C (stereo not shown) | cell viability | – | IL1501 | 72 h | > 66000

Some of these lines once more:
Compound | effect on | method | strain | time | IC50 [nM]
O=C(Nc1cc2nc(-c3ccc(F)c(F)c3)c(CN3CCN(c4ccc(F)cc4)CC3)n2cn1)N1CC[C@H](F)C1 | parasite growth | – | STIB900 | 3 days | 900
O=[N+]([O-])c1ccc(/C=N/N=C/c2ccc([N+](=O)[O-])s2)cc1 | parasite growth | CellTiter-Glo | IL1501 bloodstream form | 72 h | 930 ± 230
